Published values of several laboratories.
Each line is one published result; not all experiments were run side by side.
PFF0160c: Dihydroorotate dehydrogenase (quinone), mitochondrial (PFF0160c, Plasmodium falciparum, UniProt Q08210)
Sequence of UniProt Q08210 (whole entry, looked up): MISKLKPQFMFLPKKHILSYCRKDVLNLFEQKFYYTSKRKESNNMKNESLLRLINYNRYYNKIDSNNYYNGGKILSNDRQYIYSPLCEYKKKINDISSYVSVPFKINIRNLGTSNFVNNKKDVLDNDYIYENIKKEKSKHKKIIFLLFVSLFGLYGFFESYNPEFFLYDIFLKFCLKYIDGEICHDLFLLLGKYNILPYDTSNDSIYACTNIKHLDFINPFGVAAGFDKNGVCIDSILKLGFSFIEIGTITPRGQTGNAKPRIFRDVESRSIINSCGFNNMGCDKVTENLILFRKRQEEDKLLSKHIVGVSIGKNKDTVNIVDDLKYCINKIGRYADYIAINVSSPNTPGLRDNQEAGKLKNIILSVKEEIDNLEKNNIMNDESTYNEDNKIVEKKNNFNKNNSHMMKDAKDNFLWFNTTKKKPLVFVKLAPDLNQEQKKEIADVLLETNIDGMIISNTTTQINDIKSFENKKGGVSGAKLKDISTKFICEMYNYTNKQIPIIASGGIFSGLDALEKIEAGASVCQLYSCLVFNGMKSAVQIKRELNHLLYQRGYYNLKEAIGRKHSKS
TMPRSS2: Transmembrane protease serine 2 (TMPRSS2, Homo sapiens, UniProt O15393)
Sequence of UniProt O15393 (whole entry, looked up): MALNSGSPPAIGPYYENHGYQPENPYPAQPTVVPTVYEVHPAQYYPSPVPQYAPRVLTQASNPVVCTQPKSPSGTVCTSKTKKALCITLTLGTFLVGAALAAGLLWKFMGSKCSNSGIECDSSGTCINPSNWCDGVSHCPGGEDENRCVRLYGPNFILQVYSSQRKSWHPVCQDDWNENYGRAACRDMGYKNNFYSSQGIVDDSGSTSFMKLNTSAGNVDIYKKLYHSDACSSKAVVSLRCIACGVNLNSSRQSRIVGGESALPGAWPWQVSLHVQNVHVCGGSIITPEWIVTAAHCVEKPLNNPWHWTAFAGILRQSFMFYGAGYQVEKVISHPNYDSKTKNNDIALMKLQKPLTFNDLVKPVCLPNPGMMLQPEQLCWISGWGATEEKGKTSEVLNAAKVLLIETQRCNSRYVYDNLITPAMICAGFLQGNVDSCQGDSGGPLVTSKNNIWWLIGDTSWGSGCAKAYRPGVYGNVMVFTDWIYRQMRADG
Sequence of UniProt Q8N752 (whole entry, looked up): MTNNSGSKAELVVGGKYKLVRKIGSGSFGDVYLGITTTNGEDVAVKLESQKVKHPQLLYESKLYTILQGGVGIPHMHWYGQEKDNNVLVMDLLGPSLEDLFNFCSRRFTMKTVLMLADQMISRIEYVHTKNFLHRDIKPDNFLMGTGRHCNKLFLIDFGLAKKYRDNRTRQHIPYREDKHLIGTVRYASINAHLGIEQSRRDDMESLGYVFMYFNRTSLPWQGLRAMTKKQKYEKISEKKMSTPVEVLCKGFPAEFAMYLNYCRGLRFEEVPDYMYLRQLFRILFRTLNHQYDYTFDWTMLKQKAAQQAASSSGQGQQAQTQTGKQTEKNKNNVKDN
Sequence of UniProt Q9NRH2 (whole entry, looked up): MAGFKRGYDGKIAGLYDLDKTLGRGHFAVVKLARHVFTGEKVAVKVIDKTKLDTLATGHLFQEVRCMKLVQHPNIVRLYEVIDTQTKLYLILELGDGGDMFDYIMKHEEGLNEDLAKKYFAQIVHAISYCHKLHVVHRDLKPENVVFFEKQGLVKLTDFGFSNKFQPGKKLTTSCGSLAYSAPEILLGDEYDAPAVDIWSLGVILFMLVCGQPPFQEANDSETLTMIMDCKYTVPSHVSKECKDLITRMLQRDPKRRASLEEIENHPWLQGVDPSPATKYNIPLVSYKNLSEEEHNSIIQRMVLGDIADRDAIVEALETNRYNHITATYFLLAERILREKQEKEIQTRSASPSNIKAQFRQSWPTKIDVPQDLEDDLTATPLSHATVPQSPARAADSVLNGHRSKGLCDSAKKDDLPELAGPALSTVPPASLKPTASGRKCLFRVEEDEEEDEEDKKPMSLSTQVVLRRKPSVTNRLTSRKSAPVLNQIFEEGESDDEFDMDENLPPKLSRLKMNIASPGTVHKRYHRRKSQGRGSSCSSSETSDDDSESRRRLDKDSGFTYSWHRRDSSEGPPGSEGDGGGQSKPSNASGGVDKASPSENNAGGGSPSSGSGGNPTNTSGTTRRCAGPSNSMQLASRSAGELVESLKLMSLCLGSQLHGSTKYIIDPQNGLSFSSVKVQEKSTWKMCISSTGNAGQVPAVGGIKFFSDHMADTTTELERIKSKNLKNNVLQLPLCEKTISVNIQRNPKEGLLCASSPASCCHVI
Sequence of UniProt P12821 (whole entry, looked up): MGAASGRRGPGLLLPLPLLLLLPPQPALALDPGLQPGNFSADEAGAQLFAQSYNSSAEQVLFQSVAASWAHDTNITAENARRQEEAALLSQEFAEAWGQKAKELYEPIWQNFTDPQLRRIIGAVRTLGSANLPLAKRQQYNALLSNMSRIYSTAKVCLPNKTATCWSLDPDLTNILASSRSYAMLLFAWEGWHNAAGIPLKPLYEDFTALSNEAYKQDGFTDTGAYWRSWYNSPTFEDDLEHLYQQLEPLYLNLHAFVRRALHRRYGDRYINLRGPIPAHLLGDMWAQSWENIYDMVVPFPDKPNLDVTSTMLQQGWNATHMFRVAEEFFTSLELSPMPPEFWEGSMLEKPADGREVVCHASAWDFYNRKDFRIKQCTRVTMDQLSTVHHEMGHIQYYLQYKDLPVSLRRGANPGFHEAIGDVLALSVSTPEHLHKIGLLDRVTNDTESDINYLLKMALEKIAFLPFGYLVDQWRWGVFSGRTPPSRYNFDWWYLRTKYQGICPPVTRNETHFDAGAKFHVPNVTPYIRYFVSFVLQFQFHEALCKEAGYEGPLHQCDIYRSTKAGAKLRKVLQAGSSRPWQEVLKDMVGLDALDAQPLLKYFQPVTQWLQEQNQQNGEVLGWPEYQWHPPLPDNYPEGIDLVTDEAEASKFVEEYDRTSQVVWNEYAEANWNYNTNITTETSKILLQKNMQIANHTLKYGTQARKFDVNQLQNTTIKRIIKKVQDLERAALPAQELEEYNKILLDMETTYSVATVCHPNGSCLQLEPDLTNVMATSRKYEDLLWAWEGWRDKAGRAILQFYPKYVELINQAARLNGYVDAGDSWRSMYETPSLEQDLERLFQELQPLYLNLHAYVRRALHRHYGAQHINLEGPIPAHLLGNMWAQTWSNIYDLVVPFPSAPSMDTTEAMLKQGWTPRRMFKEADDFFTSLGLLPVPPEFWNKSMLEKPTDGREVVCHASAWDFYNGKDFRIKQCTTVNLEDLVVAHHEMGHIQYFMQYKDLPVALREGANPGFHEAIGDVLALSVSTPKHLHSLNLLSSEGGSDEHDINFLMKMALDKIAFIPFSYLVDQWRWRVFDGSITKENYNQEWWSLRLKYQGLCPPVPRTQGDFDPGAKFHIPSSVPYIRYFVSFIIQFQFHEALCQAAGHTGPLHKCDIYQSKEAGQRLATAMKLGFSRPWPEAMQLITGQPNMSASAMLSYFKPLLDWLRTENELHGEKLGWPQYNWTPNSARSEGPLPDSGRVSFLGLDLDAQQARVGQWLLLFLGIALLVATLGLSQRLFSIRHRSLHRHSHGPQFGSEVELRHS
Sequence of UniProt Q9H422 (whole entry, looked up): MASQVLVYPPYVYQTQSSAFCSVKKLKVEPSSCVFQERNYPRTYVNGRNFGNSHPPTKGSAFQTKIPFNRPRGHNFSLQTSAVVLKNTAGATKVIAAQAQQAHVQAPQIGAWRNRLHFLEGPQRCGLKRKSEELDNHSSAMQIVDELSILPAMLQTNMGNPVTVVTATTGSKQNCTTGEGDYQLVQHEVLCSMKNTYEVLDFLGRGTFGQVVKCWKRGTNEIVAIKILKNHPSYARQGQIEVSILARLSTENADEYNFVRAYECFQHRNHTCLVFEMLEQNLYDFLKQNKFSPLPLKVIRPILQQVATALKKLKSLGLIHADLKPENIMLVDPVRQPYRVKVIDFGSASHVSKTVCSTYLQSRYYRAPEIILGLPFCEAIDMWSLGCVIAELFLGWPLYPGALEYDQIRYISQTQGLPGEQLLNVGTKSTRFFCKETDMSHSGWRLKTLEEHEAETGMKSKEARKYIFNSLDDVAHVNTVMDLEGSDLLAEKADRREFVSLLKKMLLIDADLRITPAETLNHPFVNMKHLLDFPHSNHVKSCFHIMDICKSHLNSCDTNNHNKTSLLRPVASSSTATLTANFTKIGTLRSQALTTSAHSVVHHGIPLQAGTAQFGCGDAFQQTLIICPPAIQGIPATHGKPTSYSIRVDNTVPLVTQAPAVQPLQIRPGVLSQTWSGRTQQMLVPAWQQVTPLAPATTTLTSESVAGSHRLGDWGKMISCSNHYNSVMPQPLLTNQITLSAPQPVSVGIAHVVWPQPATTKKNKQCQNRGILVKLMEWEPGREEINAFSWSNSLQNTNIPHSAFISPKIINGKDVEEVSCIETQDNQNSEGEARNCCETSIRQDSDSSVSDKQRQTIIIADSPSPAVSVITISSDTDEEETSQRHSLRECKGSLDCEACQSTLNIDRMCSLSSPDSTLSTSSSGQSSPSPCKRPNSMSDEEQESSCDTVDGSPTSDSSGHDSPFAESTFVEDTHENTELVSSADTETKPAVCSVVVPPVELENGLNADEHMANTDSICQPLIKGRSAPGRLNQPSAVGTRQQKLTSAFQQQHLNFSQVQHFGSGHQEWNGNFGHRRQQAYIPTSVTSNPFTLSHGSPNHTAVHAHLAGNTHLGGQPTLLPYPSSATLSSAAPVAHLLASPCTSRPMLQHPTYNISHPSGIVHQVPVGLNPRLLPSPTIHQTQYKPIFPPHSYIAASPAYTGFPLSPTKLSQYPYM

| Compound | target | effect on | mode | technique | tested at | quantity | result |
| --- | --- | --- | --- | --- | --- | --- | --- |
| Cc1nn(C)cc1-c1nc2c(N3CCN(Cc4ccc(Cl)cc4)CC3)c(Cl)cnc2[nH]1 | SNF-related serine/threonine-protein kinase (SNRK, Homo sapiens, UniProt Q9NRH2) | binding |  | competition with immobilised ligand | 1 µM | remaining binding | 100% |
| Nc1ncc(-c2nc(N3CCOCC3)nc(N3CCOCC3)n2)c(C(F)F)n1 | Homeodomain-interacting protein kinase 3 (HIPK3, Homo sapiens, UniProt Q9H422) | binding |  | competition with immobilised ligand | 10 µM | remaining binding | 56% |
| [2H]c1c([2H])c([C@]2([2H])CCCN2C(=O)C(C)(C)Oc2ccc3cn[nH]c3c2)c([2H])c([2H])c1C([2H])([2H])[2H] | Serine/threonine-protein kinase/endoribonuclease IRE1 (ERN1, Homo sapiens, UniProt O75460) | binding |  | competition with immobilised ligand | 1 µM | remaining binding | 85% |
| COc1ccc(-n2ccnc2SCC(=O)Nc2cc(Cl)ccc2OC)c(OC)c1 | PFF0160c | enzyme activity | inhibitor | absorbance |  | IC50 | 478 nM |
| COCCC(=O)N[C@@H](CCC(N)=O)C(=O)N[C@@H](Cc1ccccc1)C(=O)N[C@H](CCCNC(=N)N)C(=O)c1nc2ccccc2s1 | TMPRSS2 | enzyme activity | inhibitor |  | 1 nM | activity vs control | 27% |
| CC(C)CC(=O)OC[C@H]1O[C@@](C#N)(c2ccc3c(N)ncnn23)[C@H](O)[C@@H]1O | Angiotensin-converting enzyme (ACE, Homo sapiens, UniProt P12821) | enzyme activity | inhibitor |  | 20 µM | inhibition | -15% |
| N=C(N)NCCCC(NC(=O)[C@@H]1CCCN1C(=O)[C@H](CC(N)=O)NC(=O)[C@@H](N)CCCNC(=N)N)C(=O)c1nc2ccccc2s1 (some centres unmarked) | TMPRSS2 | enzyme activity | inhibitor |  | 1 nM | activity vs control | 83% |
| C#Cc1n[nH]c2c(-c3cn([C@@H](C)c4ccccn4)c(=O)[nH]c3=O)cc(F)cc12 | Tyrosine-protein kinase JAK3 (JAK3, Homo sapiens, UniProt P52333) | enzyme activity | inhibitor |  | 0.1 µM | inhibition | -3.2% |
| Cc1[nH]c(C)c(-c2ccc(OCCn3cnc(Cl)c3Cl)cc2)c(=O)c1Br | PFF0160c | enzyme activity | inhibitor | absorbance |  | IC50 | 1210 nM |
| N=C(N)NCCC[C@H](NC(=O)[C@H](Cc1ccc(O)cc1)NC(=O)[C@H](CS)NC(=O)[C@@H](N)Cc1c[nH]c2ccccc12)C(=O)c1nc2ccccc2s1 | TMPRSS2 | enzyme activity | inhibitor |  | 1 nM | activity vs control | 96% |
| COc1ncccc1-c1cnn2ccc(N3CCN(C(=O)OC(C)C)CC3)nc12 | Casein kinase I isoform alpha-like (CSNK1A1L, Homo sapiens, UniProt Q8N752) | binding |  | competition with immobilised ligand | 1 µM | remaining binding | 100% |

A few entries again:
| Compound | target | effect on | mode | technique | tested at | quantity | result |
| --- | --- | --- | --- | --- | --- | --- | --- |
| Cc1nn(C)cc1-c1nc2c(N3CCN(Cc4ccc(Cl)cc4)CC3)c(Cl)cnc2[nH]1 | SNF-related serine/threonine-protein kinase (SNRK, Homo sapiens, UniProt Q9NRH2) | binding |  | competition with immobilised ligand | 1 µM | remaining binding | 100% |
